Results gathered from unrelated publications.
A part holds a random share of what one study measured. Substitutions count along the parent as printed.

Series 1
Target: CCNA2, cyclin fold, Cln2 fusion (human)
Technique: yeast growth competition, sequencing
Medium: yeast
Notes: strong parent motif
Reference: not given
Direction: higher = stronger binding
Parent: SCAPER docking peptide (human); SNARRSLNFGGST; partner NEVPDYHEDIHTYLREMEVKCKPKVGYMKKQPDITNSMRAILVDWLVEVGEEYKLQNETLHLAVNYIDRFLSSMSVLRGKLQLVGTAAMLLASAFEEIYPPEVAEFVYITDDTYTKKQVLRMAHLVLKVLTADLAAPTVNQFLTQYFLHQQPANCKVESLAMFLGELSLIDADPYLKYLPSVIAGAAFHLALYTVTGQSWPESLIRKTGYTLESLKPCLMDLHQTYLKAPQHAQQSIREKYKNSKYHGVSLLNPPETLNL
Change | normalised enrichment score
S6N | 5.37
S12D | 5.81
A3W | 3.04
G11A | 6.4
N8M | 5.12
N2L | 5.27
S12H | 6.35
S6I | 4.44
F9R | 1.04
L7Q | 1.12
R4L | 1.13
G11E | 5.43
A3G | 2.07
G11V | 7.05

Series 2
Target: Sal-like protein 4, full length isoform A (SALL4, Homo sapiens, UniProt Q9UJQ4, residues 1-1053)
Chain of UniProt Q9UJQ4 (whole entry, looked up): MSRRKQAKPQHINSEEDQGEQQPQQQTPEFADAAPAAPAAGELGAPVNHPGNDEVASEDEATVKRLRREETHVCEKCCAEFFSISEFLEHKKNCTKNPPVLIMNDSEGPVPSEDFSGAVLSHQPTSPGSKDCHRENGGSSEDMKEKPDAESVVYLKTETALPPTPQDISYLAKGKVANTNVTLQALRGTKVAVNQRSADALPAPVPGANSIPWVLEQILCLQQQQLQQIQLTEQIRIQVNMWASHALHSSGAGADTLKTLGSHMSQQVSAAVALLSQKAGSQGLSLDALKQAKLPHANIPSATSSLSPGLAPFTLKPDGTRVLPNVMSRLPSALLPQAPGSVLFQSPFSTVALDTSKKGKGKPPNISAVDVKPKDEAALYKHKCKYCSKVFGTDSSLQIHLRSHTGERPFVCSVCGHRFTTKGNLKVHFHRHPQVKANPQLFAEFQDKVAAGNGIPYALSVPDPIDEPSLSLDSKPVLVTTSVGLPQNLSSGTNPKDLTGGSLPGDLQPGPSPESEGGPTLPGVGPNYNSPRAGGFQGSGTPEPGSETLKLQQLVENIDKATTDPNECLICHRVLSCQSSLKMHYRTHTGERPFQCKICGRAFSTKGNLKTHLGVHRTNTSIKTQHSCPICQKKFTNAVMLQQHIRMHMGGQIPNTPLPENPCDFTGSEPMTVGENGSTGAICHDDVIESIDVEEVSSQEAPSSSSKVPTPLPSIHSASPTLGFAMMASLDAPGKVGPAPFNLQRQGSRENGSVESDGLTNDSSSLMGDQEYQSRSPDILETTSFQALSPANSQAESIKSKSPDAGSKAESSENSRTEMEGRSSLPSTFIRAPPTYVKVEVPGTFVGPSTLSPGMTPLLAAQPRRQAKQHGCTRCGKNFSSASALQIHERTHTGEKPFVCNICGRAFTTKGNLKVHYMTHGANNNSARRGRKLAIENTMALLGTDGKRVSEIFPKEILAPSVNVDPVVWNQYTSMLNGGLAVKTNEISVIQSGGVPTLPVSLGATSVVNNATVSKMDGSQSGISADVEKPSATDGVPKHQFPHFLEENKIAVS
Technique: universal PBM
Molecule type: double-stranded DNA, one strand shown
Medium: in vitro
Tested at: 600 nM
Notes: 8-mer, flanks averaged, mean of replicates
Direction: higher = stronger binding
Oligonucleotide | E-score
GCGCTGTA | -0.0557
ACTACCAC | 0.028
AGAAGGGC | -0.274
CGAACCAA | 0.0707
GTCGTAGA | 0.00911
TCAGGGAA | -0.0163
GCGATCGA | -0.124
AGACGACT | -0.078
ACGAAGGG | -0.196
GCACTAGC | -0.19
CACTTAGA | 0.103
ACCGAAGG | -0.0997
ACGTCGAT | -0.0418
CGTCCACG | -0.235
AATCGAGC | -0.0608
CTCTGTCA | 0.038
GTCGTCAC | 0.0423
CAGTTTAG | 0.00485
ACCAAGTA | 0.0781

Series 3
Target: CDC34 UBC core domain (UniProt P49427)
Technique: yeast two-hybrid
Medium: yeast
Notes: mostly zero background
Reference: not given
Direction: higher = stronger interaction
B1: RNF32 RING domain (UniProt Q9H0A6); chain VQALRRETHECSICLAPLSAAGGQRVGAGRRSREMALLSCSHVFHHACLLALEEFSVGDRPPFHACPLCRSCYQKKILEC
B2: RNF7 RING domain (UniProt Q9UBF6); chain AICRVQVMDACLRCQAENKQEDCVVVWGECNHSFHNCCMSLWVKQNNRCPLCQQDWVVQRIGK
B3: NHLRC1 RING domain (UniProt Q6VVB1); chain MREAEISLLECKVCFEKFGHRQQRRPRNLSCGHVVCLACVAALAHPRTLALECPFCRRACRGCDTSD
B4: MDM2 RING domain (UniProt Q00987); chain TQDKEESVESSLPLNAIEPCVICQGRPKNGCIVHGKTGHLMACFTCAKKLKKRNKPCPVCRQPIQMIVLTYFP
B5: RNF130 RING domain (UniProt Q86XS8); chain DKETDPDFDHCAVCIESYKQNDVVRILPCKHVFHKSCVDPWLSEHCTCPMCKLNILKALGIV
B6: TRIM28 RING domain (UniProt Q13263); chain GAEALELLEHCGVCRERLRPEREPRLLPCLHSACSACLGPAAPAAANSSGDGGAAGDGTVVDCPVCKQQCFSKDIVE
Construct (chain): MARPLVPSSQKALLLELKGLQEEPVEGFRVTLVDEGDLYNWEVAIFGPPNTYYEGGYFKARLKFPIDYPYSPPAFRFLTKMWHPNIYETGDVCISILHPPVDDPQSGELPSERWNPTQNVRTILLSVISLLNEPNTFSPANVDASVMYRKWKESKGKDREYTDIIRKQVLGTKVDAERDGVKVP
Molecule | lacZ reporter activity
FLSKVEETFQCICCQELVFRPITTVCQHNVCKDCLDRSFRAQVFSCPACRYDLGRSYAMQ (UHRF1 RING domain (UniProt Q96T88)) | 0
B1 (RNF32 RING domain) | 0
B2 (RNF7 RING domain) | 0
PLRRLQEEKLCKICMDRHIAVVFIPCGHLVTCKQCAEAVDRCPMCSAVIDFKQRVF (BIRC8 RING domain (UniProt Q96P09)) | 0
B3 (NHLRC1 RING domain) | 0
B4 (MDM2 RING domain) | 0
B5 (RNF130 RING domain) | 0
B6 (TRIM28 RING domain) | 0
AAQLLEEKLTCAICLGLYQDPVTLPCGHNFCGACIRDWWDRCGKACPECREPFPDGAELR (TRIM65 RING domain (UniProt Q6PJ69)) | 0

Series 4
Target: RNA binding protein fox-1 homolog 2, RRM domain, GST-SBP tag (RBFOX2, Homo sapiens, UniProt O43251-10, residues 100-194)
Technique: RNA Bind-n-Seq
Molecule type: RNA
Medium: in vitro
Tested at: 365 nM
Notes: natural RNA segment, single round, ends assumed
Reference: no-protein control
Direction: higher = stronger binding
All sequences stand within: GGGAGUUCUACAGUCCGACGAUC … UGGAAUUCUCGGGUGCCAA
Residues (chain): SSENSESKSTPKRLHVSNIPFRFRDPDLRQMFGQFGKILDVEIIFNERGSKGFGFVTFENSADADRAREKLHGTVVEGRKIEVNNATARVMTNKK
Oligonucleotide | RBNS enrichment (R)
AUCUAUGAUUCAAGACAGUGGGAAUUUUAUCUUCUGUAACAAGUUUCAAUAAAGUUAGACCAGCUUCUUCUGUGUCUAUUUCCUCGCCUAUAAAGUGGGACAUGUUUUGG | 0.468
CAUGAUCCAGGGAAUGAAAAGAAAUUUGACCCUGGAUUAGUUUCUUUGUCGGCGCUGAGGAACACUGCUUUUUCACAAAGUUCCCCCGGGAUAGAAUGGCUGUCCAGUCU | 0.243
UAUUUUUUUUUACCUCUAUCAGGGUUUUUAUUUGAAAGUGUGCUCUUACCAUUUCCUUGUUUGAGUAAGAGAGUGAAUGGUUCUGAGUGUUUAGGAAGGAUUUGCUUGCU | 2.3
CUGUCUGAUGGGAGUAUAAAUUGGACAGUAAGGUUUUGUCUUAAUAAAAUGAAAUUUGUUUCUCAUGAUAUGAAUCUUGCAGGUAAGAUGUAGGGUUUAUUGAAAAUGUG | 0.351
GGCUGUGGCCUGCUGCCUGCUCAUGAUGAGUGGCCUCUGUUGACUUGUUUCUGGUUCACGUGGGGCCACCUGAAUCCGUGUCUGUGAGCAUUGACGCUUGAGUGAGCACG | 2.68
UUAGGCCUCUUGUUCACAUCAAAAGAUAUUGGUGUCAGAAUACCAGCAUUUUCCUGCCAUGCAAAGGAUUAAAACUUAGUUUACACUAUGUGGUUACAAAUAUAUGUCAA | 0.495
GCUCCUGCAUCGAGUCUGUAAACCAGAGCUGGUUCUCAUGGCCUUCGUCACGAUACCAGGAUACGGAGGGGAGCCCAGGGCCAUCCAUACCCACCCCAGGGUAACGGGGC | 0.245
UUGUGUGGUCACCAAGAGGACUGAGGACACAGUAGCCCUGAGCCAAGUUGGGCUCAUCUUCCAGGGAGCAAACCUAAAGCUGGCAGUCAGCCGCCCUGGCUAGAGGCCUG | 0.377
UCAUCUGGUUGGUUUUCAGCCUAGAAUUUGAUACGCUUUUUAGAAAUAUGCCCAGAAUAGAAAAGCUAUGUUGGGGCACAUGUCCUGCAAAUAUGGCCCUAGAAACAAGU | 0.373
UGAAAUUCACUGAAGAAAAAUAUGUGAAGGACCUUCACUCUGAGAUGUUAUAUUUUUUUUUAAAAAUAACUCUGAGUAGGGGUACCACUGAAUCUGUACAGAGCCGUACA | 0.407
GAGGUGGACCCCGAAACGGACGGCCCGGAGCCCGCACCAGCCCCGCGCCUACCCGGGCCGCCCCCGCGGCCUGGCCCUCGGCGCGGGCUCCUUCCCGCUUCCCCCGACUU | 0.349
CGUCCCCCACCCUGCGGGACAGUGAACUGUGCAUAAGUCAGCGGAGGGCGACGACCCUCGCCGCGGGACCCGGGACUCGAGCCCGGGACUUCGCAGCUACAGCACAUCUA | 0.188

Series 5
Target: MAFF, bZIP domain (human)
Technique: DHFR protein complementation
Medium: yeast
Notes: single substitutions, most at no-binding floor
Reference: wild-type JUN-FOS pair
Direction: higher = stronger binding
Parent: JUN, bZIP domain (human); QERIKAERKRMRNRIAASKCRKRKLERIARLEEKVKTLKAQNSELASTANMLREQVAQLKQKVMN; partner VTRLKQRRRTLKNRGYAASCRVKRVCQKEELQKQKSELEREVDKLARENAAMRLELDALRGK
Change | binding fitness [natural log]
A57T | -1.34
L45E | -1.55
A46M | -1.44
E33W | -1.52
A40K | -1.37
R30G | -1.39
L45V | -1.54
T48C | -1.37
S43D | -1.51
V56P | -1.5
E33Q | -1.32
V56K | -1.31
S47I | -1.32

A few entries again (series 1):
Change | normalised enrichment score
S12D | 5.81
A3W | 3.04
G11A | 6.4
N8M | 5.12
N2L | 5.27
S12H | 6.35
S6I | 4.44
F9R | 1.04
L7Q | 1.12
